Experimental data gathered from unrelated publications.
Each numbered part is a random draw from the data of one study; scales do not carry over between parts. Changes are numbered by the printed parent chain.

Block 1
Target: PABPC1L2, full length, GST fusion (mouse, UniProt A0ABA7IW68)
Technique: RNAcompete
Molecule type: RNA
Matrix: in vitro
Tested at: 20 nM
Notes: 7-mer, probes averaged, single round
Baseline: mean of 7-mers
Direction: higher = stronger binding
Target sequence (chain): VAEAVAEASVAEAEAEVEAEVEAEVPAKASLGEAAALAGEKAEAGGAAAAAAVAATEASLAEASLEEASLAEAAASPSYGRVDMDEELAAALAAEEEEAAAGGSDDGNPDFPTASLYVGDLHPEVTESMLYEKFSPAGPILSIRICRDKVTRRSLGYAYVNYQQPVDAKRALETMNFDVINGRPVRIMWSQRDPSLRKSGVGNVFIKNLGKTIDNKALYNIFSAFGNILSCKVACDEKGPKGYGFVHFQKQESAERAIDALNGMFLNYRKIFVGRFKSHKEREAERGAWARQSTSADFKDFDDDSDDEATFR
Strand | 7-mer Z-score
GCUCCUU | -0.318
GAUCACU | -0.175
ACAGAGC | 0.182
AUCAUGA | -0.11
CUACACA | -0.0554
CUGGUGA | -0.11
GGGGAAG | 0.325
GGAGGAU | 0.066
GAGGUAG | -0.0591
AAGACGC | 0.385
UGGGUGC | 0.017
UGCAAGU | -0.206
CCUAUUG | -0.333
GGUUCAC | -0.235
CAUCAAC | -0.128
UAGGGAG | 0.233
GUUUCAU | -0.423

Block 2
Target: Centromere-binding protein 1, full length, N-terminal tag (CBF1, Saccharomyces cerevisiae, UniProt P17106, residues 1-351)
UniProt P17106, sequence (whole entry, looked up): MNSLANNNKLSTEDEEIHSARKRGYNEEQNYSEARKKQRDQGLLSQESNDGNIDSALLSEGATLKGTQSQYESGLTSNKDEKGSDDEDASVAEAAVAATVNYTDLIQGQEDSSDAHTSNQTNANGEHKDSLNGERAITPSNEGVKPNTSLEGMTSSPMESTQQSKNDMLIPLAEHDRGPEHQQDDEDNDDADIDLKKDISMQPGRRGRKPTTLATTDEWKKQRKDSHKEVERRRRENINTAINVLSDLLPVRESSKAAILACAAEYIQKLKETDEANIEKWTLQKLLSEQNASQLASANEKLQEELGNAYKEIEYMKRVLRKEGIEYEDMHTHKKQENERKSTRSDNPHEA
Technique: protein-binding microarray
Molecule type: double-stranded DNA, one strand shown
Matrix: in vitro
Tested at: 0.8 µM
Notes: whole 60-bp probe, no competitor
Direction: higher = stronger binding
Strand | fluorescence intensity
GAAGGCTGTTTTCGTCACGGGGAATCCTTACACTAGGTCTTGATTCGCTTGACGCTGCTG | 1170 a.u.
GAATTTTTGCTTAAATAGGTGACACAAAATGGATAGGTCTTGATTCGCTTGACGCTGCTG | 608 a.u.
CCTAACTACTATAGGTACACGTCATAGCTTCGTACAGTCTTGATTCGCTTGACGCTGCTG | 509 a.u.
GAATATTGATGTCCTGACGTGGTGTACAAACTATAGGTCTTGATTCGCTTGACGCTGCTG | 588 a.u.
CTAGTGAAGGCCATCAAAATCACGTTTATCAATTTCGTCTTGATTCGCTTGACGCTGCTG | 1470 a.u.
CTATTCACGACACATCACGTGTGTGCTCGTTTATTCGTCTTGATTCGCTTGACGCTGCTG | 12800 a.u.
GAAAAAAAGCTGGGTCACGAAGAAATGATTCTATAGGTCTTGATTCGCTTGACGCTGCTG | 564 a.u.
CTACAGCTCAACAGCGTGGTGACGAGTTGCGTCTTCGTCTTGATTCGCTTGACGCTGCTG | 504 a.u.
GAACTGATCACTCCGCACGTGCGCGCTGAGAGGTAGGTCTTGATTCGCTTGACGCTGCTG | 8990 a.u.
GAAATAATACTTATCAGCGTGATTGGATTGTAGTAGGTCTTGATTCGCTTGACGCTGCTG | 721 a.u.
CTAGTAAAAGTACGGCACGTGACCTTCCTGGTATTCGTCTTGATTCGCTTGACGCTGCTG | 22800 a.u.
CTAAACCTAATGCTACTGATCACAGCAATAAGGTTCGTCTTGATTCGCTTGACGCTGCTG | 497 a.u.
GAAATCCTTGAAAACGGCATCAGGATGCACAAATAGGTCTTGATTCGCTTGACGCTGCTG | 491 a.u.
CTATTTCAAATATTTCACGCGCAAAGAAAGAATTTCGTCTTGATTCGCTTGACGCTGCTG | 665 a.u.
GAAAAGAACAATATTCGGGTGACGCCGCCCCTGTAGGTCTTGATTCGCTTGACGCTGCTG | 483 a.u.
GAAACCATCACTTATCACGTTGTGGTGACAACGTAGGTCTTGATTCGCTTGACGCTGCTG | 979 a.u.
GAATTATCAATAAATCACCTGCACACGCTGTCCTAGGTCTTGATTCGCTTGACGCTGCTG | 1040 a.u.
CTACTAGTATACTGTCACATGCGGTGTAACGTGTTCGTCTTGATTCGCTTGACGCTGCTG | 1940 a.u.
CCTAACTACTATAATCACGCGATATAGCTTCGTACAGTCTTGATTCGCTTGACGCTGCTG | 1320 a.u.

Block 3
Target: CCNB2, cyclin fold, Cln2 fusion (human)
Technique: yeast growth competition, sequencing
Matrix: yeast
Notes: weak parent motif
Baseline: not given
Direction: higher = stronger binding
Starting sequence: MASTL docking peptide (human); PMIAKNLMCELDE
Change | normalised enrichment score
PMIATNLMCELDE [K5T] | -0.00566
PMIAENLMCELDE [K5E] | -0.262
PMIAMNLMCELDE [K5M] | 0.0917
PMWAKNLMCELDE [I3W] | 0.0918
PMIAKNLMCEVDE [L11V] | 0.109
PMIAKNLMCELRE [D12R] | 0.171
PMIAKNMMCELDE [L7M] | -0.351
PMIAKNLMCEHDE [L11H] | 0.168
PNIAKNLMCELDE [M2N] | 1.16
PMIASNLMCELDE [K5S] | -0.25
PMIAKNLMCMLDE [E10M] | 0.341
PMIAKNLMCEWDE [L11W] | 0.718
PMIAKNLVCELDE [M8V] | 0.403
PMIGKNLMCELDE [A4G] | -0.081
PMIRKNLMCELDE [A4R] | 1.48
PMIPKNLMCELDE [A4P] | 0.431
PMIAKNLMAELDE [C9A] | 1.6

Block 4
Target: Interferon regulatory factor 5, full length, phosphomimetic (IRF5, Homo sapiens, UniProt Q13568-2, residues 1-514, K96S/S451D/S453D/S456D/S462D)
Technique: protein-binding microarray
Molecule type: double-stranded DNA, one strand shown
Matrix: in vitro
Tested at: 250 nM
Notes: 60-bp whole probe
With: salmon DNA 0.4 mg/ml
Baseline: random background probes
Direction: higher = stronger binding
All sequences stand within: GCCTAGCAC … GTCTTGATTCGCTTGACGCTGCTG
Strand | log fluorescence [z-score]
GACGCTTCCAGTTTCGAGACGTGCTAG | 5.06
TTAGTACTGGGGACTGGATTAGTGCTA | -0.189
TTTCCTTCCTCTTTTACCCCGTGCTAG | 3.56
TTAGGTTTCGACAATCGGTTAGTGCTA | 6.55
TTAGGTTTCCTTAGCCTTTAGTGCTAG | 0.307
TCACTTGTGTTTATTGTACTGTGCTAG | 0.681
CCAATTCTTTTTATGCTTTCGTGCTAG | 1.7
TCAACTAGCGGGTCTTGCACTGTGCTA | 0.0122
ATCAGTTTAATATCTAAGATTGTGCTA | 1.06
TCACTCACTCACAGACTCACGTGCTAG | 0.242
GACGGTTCCGTTTTCCTGACGTGCTAG | 0.656
GACGGTTTCGGACTGTGGACGTGCTAG | 3.77
TCATGTGTGTGTATGTGACTGTGCTAG | 0.0871
TTAGATCTGAGACTGGATTAGTGCTAG | -0.238
GATGGACTGGGTCTCGGGACGTGCTAG | -0.348
TTAGGGTTCGGTTCCGGTTAGTGCTAG | 1.05
TTAGGTTTCGGACTGGGTAAGTGCTAG | 5.71
TTAGGTTTCGGATTCGGTTAGTGCTAG | 7.22
GACGGTATCGGTATCTGGACGTGCTAG | 5.2

Excerpt of the above (block 3):
Change | normalised enrichment score
PMIASNLMCELDE [K5S] | -0.25
PMIAKNLMCMLDE [E10M] | 0.341
PMIAKNLMCEWDE [L11W] | 0.718
PMIAKNLVCELDE [M8V] | 0.403
PMIGKNLMCELDE [A4G] | -0.081
PMIRKNLMCELDE [A4R] | 1.48
